Assay results collected from several papers.
Each numbered part is a random draw from the data of one study; scales do not carry over between parts.
Chain of UniProt Q8NI60 (whole entry, looked up): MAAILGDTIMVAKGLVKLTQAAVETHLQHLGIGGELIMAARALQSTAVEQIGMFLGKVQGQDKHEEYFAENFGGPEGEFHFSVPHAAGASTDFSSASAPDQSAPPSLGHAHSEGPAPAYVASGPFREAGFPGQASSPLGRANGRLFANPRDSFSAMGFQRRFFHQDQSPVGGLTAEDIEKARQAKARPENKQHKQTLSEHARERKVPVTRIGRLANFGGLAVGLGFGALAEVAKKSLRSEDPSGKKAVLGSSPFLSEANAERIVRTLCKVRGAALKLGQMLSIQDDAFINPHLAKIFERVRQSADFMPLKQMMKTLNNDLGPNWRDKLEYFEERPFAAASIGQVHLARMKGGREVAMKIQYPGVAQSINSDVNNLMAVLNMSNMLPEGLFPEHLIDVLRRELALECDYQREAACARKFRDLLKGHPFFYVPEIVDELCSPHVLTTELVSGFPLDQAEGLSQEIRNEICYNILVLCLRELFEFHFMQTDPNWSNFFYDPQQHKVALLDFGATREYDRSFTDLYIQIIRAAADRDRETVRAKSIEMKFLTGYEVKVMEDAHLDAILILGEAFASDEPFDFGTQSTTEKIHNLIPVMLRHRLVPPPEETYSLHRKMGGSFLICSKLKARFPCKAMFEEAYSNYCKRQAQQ
Chain of UniProt P51812 (whole entry, looked up): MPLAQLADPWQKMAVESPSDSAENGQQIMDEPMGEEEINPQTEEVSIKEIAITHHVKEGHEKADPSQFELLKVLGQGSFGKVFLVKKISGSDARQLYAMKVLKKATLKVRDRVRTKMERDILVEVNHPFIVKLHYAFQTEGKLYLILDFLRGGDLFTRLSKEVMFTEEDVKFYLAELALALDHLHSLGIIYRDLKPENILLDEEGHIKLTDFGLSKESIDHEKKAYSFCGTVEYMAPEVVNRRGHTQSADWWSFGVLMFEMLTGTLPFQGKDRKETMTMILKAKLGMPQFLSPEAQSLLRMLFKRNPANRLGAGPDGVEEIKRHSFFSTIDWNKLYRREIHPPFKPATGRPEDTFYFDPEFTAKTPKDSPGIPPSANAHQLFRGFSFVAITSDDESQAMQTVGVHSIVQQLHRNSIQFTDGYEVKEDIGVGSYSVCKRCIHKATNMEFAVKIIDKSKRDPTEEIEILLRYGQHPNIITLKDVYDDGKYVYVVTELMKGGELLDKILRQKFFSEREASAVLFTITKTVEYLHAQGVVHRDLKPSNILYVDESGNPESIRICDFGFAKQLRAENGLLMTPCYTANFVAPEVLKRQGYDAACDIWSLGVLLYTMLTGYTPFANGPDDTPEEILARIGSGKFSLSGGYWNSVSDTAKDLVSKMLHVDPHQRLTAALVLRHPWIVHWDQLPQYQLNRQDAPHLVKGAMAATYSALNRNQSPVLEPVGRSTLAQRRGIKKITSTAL
Chain of UniProt Q8IW41 (whole entry, looked up): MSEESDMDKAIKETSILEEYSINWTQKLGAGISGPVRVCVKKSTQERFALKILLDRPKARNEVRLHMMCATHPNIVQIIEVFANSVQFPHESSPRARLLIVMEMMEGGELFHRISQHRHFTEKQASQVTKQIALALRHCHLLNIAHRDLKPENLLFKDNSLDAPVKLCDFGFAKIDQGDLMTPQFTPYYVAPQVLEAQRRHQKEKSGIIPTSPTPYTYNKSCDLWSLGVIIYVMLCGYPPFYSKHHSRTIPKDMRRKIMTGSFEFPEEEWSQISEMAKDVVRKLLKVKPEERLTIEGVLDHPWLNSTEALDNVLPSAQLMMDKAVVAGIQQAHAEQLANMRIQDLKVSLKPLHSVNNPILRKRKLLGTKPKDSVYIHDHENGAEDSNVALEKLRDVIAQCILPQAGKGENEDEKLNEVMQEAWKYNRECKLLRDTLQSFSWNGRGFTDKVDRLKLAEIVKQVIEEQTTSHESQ
Chain of UniProt Q9P286 (whole entry, looked up): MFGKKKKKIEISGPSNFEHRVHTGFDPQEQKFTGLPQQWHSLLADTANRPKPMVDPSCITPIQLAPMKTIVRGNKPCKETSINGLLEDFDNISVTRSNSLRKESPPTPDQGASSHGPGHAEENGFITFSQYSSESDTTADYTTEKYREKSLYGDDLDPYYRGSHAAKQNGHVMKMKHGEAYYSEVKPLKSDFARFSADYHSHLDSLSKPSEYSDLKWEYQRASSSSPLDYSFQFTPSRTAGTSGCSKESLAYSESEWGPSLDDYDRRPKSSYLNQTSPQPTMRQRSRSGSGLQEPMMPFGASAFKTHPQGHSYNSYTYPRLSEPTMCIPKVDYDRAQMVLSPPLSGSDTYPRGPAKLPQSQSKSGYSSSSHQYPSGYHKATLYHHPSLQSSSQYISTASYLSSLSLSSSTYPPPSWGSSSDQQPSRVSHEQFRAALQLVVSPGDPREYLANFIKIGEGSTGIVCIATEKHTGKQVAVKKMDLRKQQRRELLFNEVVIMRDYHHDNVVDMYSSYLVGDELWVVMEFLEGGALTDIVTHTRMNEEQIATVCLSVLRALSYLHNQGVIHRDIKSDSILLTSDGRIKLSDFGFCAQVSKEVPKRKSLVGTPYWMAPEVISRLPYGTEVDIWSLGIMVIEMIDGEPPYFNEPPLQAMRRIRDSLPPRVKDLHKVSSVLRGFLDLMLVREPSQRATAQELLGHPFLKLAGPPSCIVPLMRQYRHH
Chain of UniProt P23458 (whole entry, looked up): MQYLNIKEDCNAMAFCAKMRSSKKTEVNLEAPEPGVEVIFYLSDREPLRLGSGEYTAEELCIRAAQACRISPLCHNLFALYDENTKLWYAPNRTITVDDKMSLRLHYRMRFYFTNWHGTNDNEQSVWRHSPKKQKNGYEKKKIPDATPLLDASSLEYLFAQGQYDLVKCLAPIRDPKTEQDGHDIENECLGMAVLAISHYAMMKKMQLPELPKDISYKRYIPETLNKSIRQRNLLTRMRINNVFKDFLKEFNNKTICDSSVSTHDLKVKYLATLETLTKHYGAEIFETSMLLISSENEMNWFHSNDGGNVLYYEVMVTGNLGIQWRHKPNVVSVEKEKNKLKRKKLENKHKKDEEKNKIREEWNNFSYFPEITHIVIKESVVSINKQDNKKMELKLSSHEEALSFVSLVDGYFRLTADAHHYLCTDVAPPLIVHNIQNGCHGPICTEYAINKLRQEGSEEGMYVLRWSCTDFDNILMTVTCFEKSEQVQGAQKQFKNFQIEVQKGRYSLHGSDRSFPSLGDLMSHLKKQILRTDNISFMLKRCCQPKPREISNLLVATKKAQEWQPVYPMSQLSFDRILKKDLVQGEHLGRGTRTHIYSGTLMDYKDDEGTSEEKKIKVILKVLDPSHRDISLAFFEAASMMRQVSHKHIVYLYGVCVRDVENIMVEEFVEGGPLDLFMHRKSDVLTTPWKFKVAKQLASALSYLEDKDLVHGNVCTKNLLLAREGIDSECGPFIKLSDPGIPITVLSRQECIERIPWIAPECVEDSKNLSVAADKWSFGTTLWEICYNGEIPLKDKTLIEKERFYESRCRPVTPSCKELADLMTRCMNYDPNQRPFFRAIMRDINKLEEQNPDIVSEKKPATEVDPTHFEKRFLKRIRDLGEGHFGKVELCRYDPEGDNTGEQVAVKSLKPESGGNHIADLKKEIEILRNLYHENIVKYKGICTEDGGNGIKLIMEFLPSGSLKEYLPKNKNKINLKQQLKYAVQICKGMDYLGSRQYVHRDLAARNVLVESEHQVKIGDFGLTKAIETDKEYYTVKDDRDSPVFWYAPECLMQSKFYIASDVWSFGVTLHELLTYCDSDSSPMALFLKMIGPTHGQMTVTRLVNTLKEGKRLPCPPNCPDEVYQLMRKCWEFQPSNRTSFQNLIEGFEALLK
Chain of UniProt Q13153 (whole entry, looked up): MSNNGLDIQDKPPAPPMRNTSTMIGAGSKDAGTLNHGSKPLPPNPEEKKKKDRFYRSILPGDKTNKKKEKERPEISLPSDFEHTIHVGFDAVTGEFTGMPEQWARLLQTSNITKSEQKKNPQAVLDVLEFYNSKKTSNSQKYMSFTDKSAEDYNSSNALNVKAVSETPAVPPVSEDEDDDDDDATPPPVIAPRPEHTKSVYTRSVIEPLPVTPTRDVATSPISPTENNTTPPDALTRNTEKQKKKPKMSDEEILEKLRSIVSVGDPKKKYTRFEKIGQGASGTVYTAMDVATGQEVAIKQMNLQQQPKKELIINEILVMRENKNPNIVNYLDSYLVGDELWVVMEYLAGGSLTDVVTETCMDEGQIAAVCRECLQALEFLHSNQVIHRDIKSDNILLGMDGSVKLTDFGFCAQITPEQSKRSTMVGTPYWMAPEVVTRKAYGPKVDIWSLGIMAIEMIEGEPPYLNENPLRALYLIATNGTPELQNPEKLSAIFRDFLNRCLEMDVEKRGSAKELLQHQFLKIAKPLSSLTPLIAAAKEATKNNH
Chain of UniProt P49674 (whole entry, looked up): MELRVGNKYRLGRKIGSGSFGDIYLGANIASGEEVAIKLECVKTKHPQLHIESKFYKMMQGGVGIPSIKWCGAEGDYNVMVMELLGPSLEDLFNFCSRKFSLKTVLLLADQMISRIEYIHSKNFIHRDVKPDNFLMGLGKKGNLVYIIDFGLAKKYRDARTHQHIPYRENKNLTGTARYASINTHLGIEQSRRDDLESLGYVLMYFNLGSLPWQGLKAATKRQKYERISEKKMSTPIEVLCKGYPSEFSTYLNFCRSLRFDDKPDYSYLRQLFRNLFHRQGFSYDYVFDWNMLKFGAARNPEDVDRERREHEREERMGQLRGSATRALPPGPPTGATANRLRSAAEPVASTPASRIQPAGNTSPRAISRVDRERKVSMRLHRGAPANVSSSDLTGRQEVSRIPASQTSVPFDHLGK

Set 1 — SMILES: Cn1cnc2cc3c(Nc4cccc(Br)c4)ncnc3cc21; observed: enzyme activity; mode: inhibitor; tested at: 0.5 µM; relative to: control
| target | remaining activity [%] |
| --- | --- |
| Serine/threonine-protein kinase PAK 5 (PAK5, Homo sapiens, UniProt Q9P286) | 86.1 |
| Protein kinase C theta type (PRKCQ, Homo sapiens, UniProt Q04759) | 96.9 |
| Tyrosine-protein kinase JAK1 (JAK1, Homo sapiens, UniProt P23458) | 96.4 |
| Serine/threonine-protein kinase PAK 1 (PAK1, Homo sapiens, UniProt Q13153) | 91.4 |
| Dual specificity protein kinase CLK1 (CLK1, Homo sapiens, UniProt P49759) | 102 |
| Ribosomal protein S6 kinase alpha-3 (RPS6KA3, Homo sapiens, UniProt P51812) | 105 |
| Muscle, skeletal receptor tyrosine-protein kinase (MUSK, Homo sapiens, UniProt O15146) | 85.3 |
| Tyrosine-protein kinase JAK2 (JAK2, Homo sapiens, UniProt O60674) | 103 |
| Serine/threonine-protein kinase SIK2 (SIK2, Homo sapiens, UniProt Q9H0K1) | 101 |
| Vascular endothelial growth factor receptor 1 (FLT1, Homo sapiens, UniProt P17948) | 77.4 |
| Ribosomal protein S6 kinase beta-2 (RPS6KB2, Homo sapiens, UniProt Q9UBS0) | 96.8 |
| Casein kinase I isoform epsilon (CSNK1E, Homo sapiens, UniProt P49674) | 90.3 |
| Maternal embryonic leucine zipper kinase (MELK, Homo sapiens, UniProt Q14680) | 89 |

Set 2 — observed: cell-free assay; method: competition with immobilised ligand; tested at: 1 µM
SMILES: CCC(=O)N[C@H]1CC[C@@H](C(=O)N(C)c2ccc(-c3nc4ccccc4o3)cc2)C1
| target | remaining binding [%] |
| --- | --- |
| MAP kinase-activated protein kinase 5 (MAPKAPK5, Homo sapiens, UniProt Q8IW41) | 73 |
| Atypical kinase COQ8A, mitochondrial (COQ8A, Homo sapiens, UniProt Q8NI60) | 100 |
| Interferon-induced, double-stranded RNA-activated protein kinase (EIF2AK2, Homo sapiens, UniProt P19525) | 100 |
| Serine/threonine-protein kinase WNK2 (WNK2, Homo sapiens, UniProt Q9Y3S1) | 74 |
| Mast/stem cell growth factor receptor Kit (KIT, Homo sapiens, UniProt P10721, A829P) | 57 |
| Cyclin-dependent kinase 2 (CDK2, Homo sapiens, UniProt P24941) | 100 |

Set 3 — method: RNA Bind-n-Seq; molecule type: RNA; sample: in vitro; tested at: 100 nM; relative to: input RNA pool; reading: higher = stronger binding
Target: RING finger protein unkempt homolog, zinc fingers 1-6, SBP tag (UNK, Homo sapiens, UniProt Q9C0B0, residues 30-357)
Chain of UniProt Q9C0B0 (30-357, looked up): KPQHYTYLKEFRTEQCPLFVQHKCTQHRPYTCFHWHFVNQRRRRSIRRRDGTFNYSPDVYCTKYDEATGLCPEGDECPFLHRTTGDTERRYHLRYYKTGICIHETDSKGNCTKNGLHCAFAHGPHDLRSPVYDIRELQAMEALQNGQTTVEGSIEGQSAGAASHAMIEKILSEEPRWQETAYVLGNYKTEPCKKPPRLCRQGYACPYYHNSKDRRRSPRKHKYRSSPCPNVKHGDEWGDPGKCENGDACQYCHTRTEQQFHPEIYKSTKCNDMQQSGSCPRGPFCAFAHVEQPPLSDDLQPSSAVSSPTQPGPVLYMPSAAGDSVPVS
Setting: RNA with constant flanks, vertebrate orthologous sites, ends assumed
| Oligonucleotide | bound/input enrichment |
| --- | --- |
| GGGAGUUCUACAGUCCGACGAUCUAGUACUUAAGCCAACAACAGUUCUAAAAUGCUAUUUAUUUGUGUCUGUAAGUUUGUACAUAGUAAUACCAACCUCAUAUUGUUGCGGAUUUUUGUUUUCACGAGUUUGAGUUUGGUUUUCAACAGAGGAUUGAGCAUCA | 0.507 ratio |
| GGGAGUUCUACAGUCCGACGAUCUUGGGACCAGCUCUCCAAAUAAGAAUAGUAGUAAAAAAAAUAAGCAAAAUGAUAUUUGUAUAGAAAAAACAGAAGUUAAAUCAUGUAGAAUCAAUGCUGCCAACAUAGCAAGCCCUAGAGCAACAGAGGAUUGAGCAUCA | 2.36 ratio |
| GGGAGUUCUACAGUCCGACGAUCACACGUAUAUUGUGGCAUAUAGUCAACAUGGAAGUAGACCAGCUCUGCUGAUUUGAAAUUUAGAUUUUUUAAUUAUGUACUGGGGACAGGUUUUUGUCGCUUUACAUUGCUUCCUAGUUUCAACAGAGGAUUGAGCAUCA | 3.18 ratio |
| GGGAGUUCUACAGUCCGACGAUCAUCUCAUGUAGUUUGUUUUUAAUUUCAAGCAAAAUUGUACUUGAAUGUGUCCCAUUUUGUUAGCACACCUAGACUUGCUGUAACUGUACUCAUGUCCCAGUAUGUACGUUCUUUCUAUGACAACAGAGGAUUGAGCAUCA | 1.31 ratio |
| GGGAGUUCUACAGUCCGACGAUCUCCCAGCACUUUGAUAAAAAGCGUGGACUGGUUGCUUGUAUUUUCCUUAUUCUUUUUAAUUAGUUUUAUUAUGUACGCCACCAUCCGAACUGAGAGCAUCCGGUGGCUAAUUCCAGGACACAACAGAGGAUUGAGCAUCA | 3.62 ratio |
| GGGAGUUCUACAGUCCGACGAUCCAUAAAAUACUGGAUGCAGUGUGUAAAUGAUCCAAGGCAGUGACGUCAGCGUUUCAUGUAGUGUCAAUUUUAAAUCAUCUGCUCUUAUUUAAAUUUCUAUAUUGGGUUGUUUCCUCUGUGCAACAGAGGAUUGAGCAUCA | 0.515 ratio |
| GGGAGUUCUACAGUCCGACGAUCUUUUGUGAGGAGUGGGAAAGAUGAGAUUCUUCUCCCCCCGAGUAAAACUGACAAUUUCCUUUUAGUUCUAUCCUUAAAAACAAAGAUGCCCUUUUUUCUUAAUUGUGUGACGCCACUAUCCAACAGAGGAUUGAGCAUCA | 0.563 ratio |
| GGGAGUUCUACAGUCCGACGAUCCAUGUCCUGGUUACUGUGAUAUUUAAAAUAUCCACAGUUCUCACUUGUUCCAAAUGAGCCUAAUAAUUGCCUACAAAUAUCUUUCUCUUACCUGUUAUUUAUCAAUUUUUCCCAGUAUUUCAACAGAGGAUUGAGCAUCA | 1.26 ratio |

Single results of other studies
| SMILES | sample | endpoint | value |
| --- | --- | --- | --- |
| CCOC(=O)[C@@H]1CSCC(=O)N[C@@H](CC)C(=O)N(C)[C@@H](C)C(=O)N[C@@H](CC(C)C)C(=O)N2CCC[C@@H]2C(=O)N(CC(C)C)CC(=O)N[C@H](CC(C)C)C(=O)N(C)[C@@H](C)C(=O)N[C@@H](CC(C)C)C(=O)N1C | hydrocarbon/water | logD | 1.19 |

Some of these lines once more (set 1):
| target | remaining activity [%] |
| --- | --- |
| Serine/threonine-protein kinase SIK2 (SIK2, Homo sapiens, UniProt Q9H0K1) | 101 |
| Vascular endothelial growth factor receptor 1 (FLT1, Homo sapiens, UniProt P17948) | 77.4 |
| Maternal embryonic leucine zipper kinase (MELK, Homo sapiens, UniProt Q14680) | 89 |
